# Earlier results, collected from citations in different studies.
# Each line is one published result; not all experiments were run side by side. Values joined by “and” are separate records of one study, mostly repeats; a detail may differ. Numbers after ± are the reported error.
Molecule,target or system,test,test system,conditions,how to read,quantity,value
COc1cc2c(Nc3ccc(Br)cc3F)ncnc2cc1OCC1CCN(C)CC1,hiPSC-derived cardiomyocytes,,,"72 h, tested 0 to 100 µM",,beating cessation concentration,33 µM
O=C(O)CNC(=O)c1ccccc1[131I],,,"normal rat, urine","10 min, with: co-injected 99mTc-1",,percent injected dose,53.2 ± 7.2 %ID
CCCCC1=NC2(CCCC2)C(=O)N1Cc1ccc(-c2ccccc2S(=O)(=O)Nc2noc(C)c2C)c(COCC)c1,,,healthy human volunteers,"dose not given, with: cyclosporine",baseline: without cyclosporine,AUCinf increase,70%
CCn1c(=O)c2c(nc(/C=C/c3ccc(OC)c(OC)c3)n2C)n(CC)c1=O,,,plasma,"oral, concentration not given, 2 h",,unchanged drug share of plasma radioactivity,~80%
CN(C)C/C=C/C(=O)Nc1cc2c(Nc3ccc(F)c(Cl)c3)ncnc2cc1O[C@H]1CCOC1,hiPSC-derived cardiomyocytes,contractility,,72 h,,lowest effective concentration,1.65 µM
GGVVIA,,filtration,"peptide, sodium phosphate buffer",pH 7.4,,solubility,143 ± 27 µM
O=c1ccc2ccccc2o1,,,plasma,concentration not given,,Cmax,1.25 µM
CC[C@H](C)CCCCC(=O)N[C@@H](CCN)C(=O)N[C@H](C(=O)N[C@@H](CCN)C(=O)N[C@H]1CCNC(=O)[C@H]([C@@H](C)O)NC(=O)[C@H](CCN)NC(=O)[C@H](CCN)NC(=O)[C@H](CC(C)C)NC(=O)[C@@H](Cc2ccccc2)NC(=O)[C@H](CCN)NC1=O)[C@@H](C)O,,population PK model,"patients, renal insufficiency",intravenous,,total clearance,1.58 L/h
COc1cc(CNC(=O)CCCC/C=C/C(C)C)ccc1O,,,plasma,concentration not given,,Cmax,0.06 µM
O=C1c2ccccc2-c2c1c1ccc([N+](=O)[O-])cc1c(=O)n2CCCn1ccnc1,NCI-60 panel mean,cell growth,,,,GI50,370 ± 280 nM
O=C1c2cccc3c2[C@H](CCC3)CN1[C@@H]1CN2CCC1CC2,,,"patients, plasma","oral, dose not given, netupitant-palonosetron combination, with: docetaxel 75 to 100 mg/m^2 IV",,half-life,65.7 h
Cc1cn([C@H]2C[C@H](N=[N+]=[N-])[C@@H](CO)O2)c(=O)[nH]c1=O,,,plasma,concentration not given,,Cmax,4 µM
C#Cc1cccc(Nc2ncnc3cc(OCCOC)c(OCCOC)cc23)c1,,,children,"120 mg/m^2/day, mean of two days",,absorption rate constant,0.59 h⁻¹
O=c1c(O)c(-c2ccc(O)c(O)c2)oc2cc(O)ccc12,,,"mouse, multiple organs","oral, diet, 0.05% in diet, 9 months",,histopathology,not toxic
NC(=O)N1c2ccccc2C[C@H](O)c2ccccc21,,,"mouse, latrunculin A seizures","po, 100 mg/kg of eslicarbazepine acetate, 60 min",,plasma concentration,60.9 µM
CCCCC1C(=O)N(c2ccccc2)N(c2ccccc2)C1=O,,,plasma,concentration not given,,Cmax,438 µM
O=C1CC(c2ccc(O)cc2)Oc2cc(O)cc(O)c21 (centres unmarked),,,rat,"oral, in meal, 230 µmol/rat, 24 h",,urinary excretion as ring-cleaved metabolites,10%
CCc1c(C#N)c(SC(C(N)=O)c2ccccc2)nc(N(C)C)c1C#N (centres unmarked),,,transgenic sickle cell disease mice,"po, dose not given",,tolerability,not toxic
CC(C)(C)c1nc(-c2cccc(NS(=O)(=O)c3c(F)cccc3F)c2F)c(-c2ccnc(N)n2)s1,,MALDI mass spectrometry imaging,blood-brain barrier organoids,"10 µM, 24 h, 37 °C",,drug level,not detected
CO[C@H]1C[C@@H]2CC[C@@H](C)[C@@](O)(O2)C(=O)C(=O)N2CCCC[C@H]2C(=O)O[C@H]([C@H](C)C[C@@H]2CC[C@@H](OC(=O)C(C)(CO)CO)[C@H](OC)C2)CC(=O)[C@H](C)/C=C(\C)[C@@H](O)[C@@H](OC)C(=O)[C@H](C)C[C@H](C)/C=C/C=C/C=C/1C,,,human,"intravenous, 25 mg once weekly, day 7 or 28",,terminal half-life,12.8 h
CC[C@@H](C)[C@@H](NC(=O)[C@@H](CCCCN)NC(=O)[C@H](CCCCN)NC(=O)[C@H](Cc1ccccc1)NC(=O)[C@H](CC(C)C)NC(=O)[C@H](CCCCN)NC(=O)[C@@H](N)CCCCN)C(=O)N[C@H](CC(C)C)C(=O)N[C@H](CCCCN)C(=O)N[C@H](Cc1ccc(O)cc1)C(=O)N[C@H](CC(C)C)C(N)=O,,,horse erythrocytes 5 % v/v,150 µM,,hemolysis,0 ± 0.7%
Nc1nc(NC2CC2)c2ncn([C@H]3C=C[C@@H](CO)C3)c2n1,,,healthy human volunteers,"oral, 600 mg single dose, fasted, with: dolutegravir 50 mg, lamivudine 300 mg",,AUC(0-t),14300 ng·h/mL
C=C[C@@H]1C[C@]1(NC(=O)[C@@H]1C[C@@H](Oc2nccc3cc(OC)ccc23)CN1C(=O)[C@@H](NC(=O)OC(C)(C)C)C(C)(C)C)C(=O)NS(=O)(=O)C1CC1,,,"rat, liver","oral, 20 mg/kg, 24 h",,tissue concentration,730 nM
Cc1c(N(C)CS(=O)(=O)O)c(=O)n(-c2ccccc2)n1C,,measured: CYP2B6,"human patients treated vs untreated, liver microsomes",dose not given,baseline: untreated patients,protein level and activity,increased
Cc1ccc(Nc2nccc(N(C)c3ccc4c(C)n(C)nc4c3)n2)cc1S(N)(=O)=O,,,patients,"dose not given, grade 3",,patients with thrombocytopenia,1%
CC(C)(S)[C@@H](N)C(=O)O,,,plasma,concentration not given,,Cmax,53.6 µM
CC(C)c1nc(N(C)S(C)(=O)=O)nc(-c2ccc(F)cc2)c1/C=C/[C@@H](O)C[C@@H](O)CC(=O)O,,,cynomolgus monkey,"dose not given, cassette dosing, with: probenecid",baseline: with over without probenecid,Cmax ratio,3.5
C#Cc1cccc(Nc2ncnc3cc(OCCOC)c(OCCOC)cc23)c1,,,human,"oral, 150 mg once daily, 24 h, day 1",,AUC(0-t),11900 ± 5010 ng·h/mL
COc1cccc2c1C(=O)c1c(O)c3c(c(O)c1C2=O)C[C@@](O)(C(=O)CO)C[C@@H]3O[C@H]1C[C@H](N)[C@H](O)[C@H](C)O1,,,immunodeficient mouse 231-BR-HER2 model,,baseline: peripheral metastases,brain metastasis uptake,30 fold lower
CC1(C)S[C@@H]2[C@H](NC(=O)[C@H](N)c3ccc(O)cc3)C(=O)N2[C@H]1C(=O)O,,,plasma,concentration not given,,Cmax,14.1 µM
O=C(Nc1ccc(OC(F)(F)Cl)cc1)c1cnc(N2CC[C@@H](O)C2)c(-c2ccn[nH]2)c1,,,"human, CML-CP with T315I","200 mg twice daily, median 2 years",,discontinuation for adverse events,8.3%
Cc1cc(Nc2cc3ncccc3c(N[C@@H]3C[C@H]4CC[C@@H](C3)N4CCC#N)n2)n[nH]1,,,humans,"once daily, multiple ascending dose",,highest well tolerated dose,300 mg
VVIA,,filtration,"peptide, sodium phosphate buffer",pH 7.4,,solubility,140 ± 30 µM
OC(Cn1cncn1)(Cn1cncn1)c1ccc(F)cc1F,,,water,hydrate,,aqueous solubility,0.55 log mg/mL
OCCOCCN1CCN(C(c2ccccc2)c2ccc(Cl)cc2)CC1 (centres unmarked),,,rat,with: cyclosporin A,,log brain permeability-surface product,-1.41 mL/g/s
CN(C)CCC=C1c2ccccc2CCc2ccccc21,,,"juvenile Chinook salmon, whole body wet weight","concentration not given, field-collected",,maximum whole-body concentration,0.68 ng/g
CCN1CCN(Cc2ccc(Nc3ncc(F)c(-c4cc(F)c5nc(C)n(C(C)C)c5c4)n3)nc2)CC1,,,cancer patients,,,elimination half-life,20 h and 22 h
Cc1nc2cccc(OCC(C)(C)C(=O)NC(C)C)c2c(N)c1C(=O)O.Cc1nc2cccc(OCC(C)(C)C(=O)NC(C)C)c2c(N)c1C(=O)O.O.O.O=S(=O)(O)O,,,"rat, male, plasma","oral gavage, 30 mg/kg, molecular weight corrected",baseline: parent drug,Cmax,114%
O=C1c2ccccc2-c2c1c1ccc([N+](=O)[O-])cc1c(=O)n2C[C@H](O)CO,breast MCF7,cell growth,,,,GI50,16 nM
Nc1ncnc2c1ncn2[C@@H]1O[C@@H]2COP(=O)(O)O[C@H]2[C@H]1O,,,methanol/water,,,log Kw,1.09
Cc1nc(-c2ccc(OCC(C)C)c(C#N)c2)sc1C(=O)O,,,healthy subjects and patients,with: food,,absorption rate constant reduction,87%
O=C(CCCCCCC(=O)Nc1ccccc1)NO,,,human,"200 mg, literature mean",,AUC(0-inf),933 ng·h/mL
C[C@H]1c2cccc(O)c2C(=O)C2=C(O)[C@]3(O)C(=O)C(C(N)=O)=C(O)[C@@H](N(C)C)[C@@H]3[C@@H](O)[C@@H]21,,,octanol-water,,,logP,-0.02
"Ac-GAVILRR-NH2 (N-acetyl, C-amide)",,dynamic light scattering,"peptide, water",,,critical aggregation concentration,3.09 -log M
CN[C@H]1CC[C@@H](c2ccc(Cl)c(Cl)c2)c2ccccc21,,,human,,baseline: patients over 65 years over younger,mean concentration ratio,1.3 fold
Cn1cc[nH]c1=S,,,plasma,concentration not given,,Cmax,9.2 µM
COc1cccc(CCc2ccccc2OCC(CN(C)C)OC(=O)CCC(=O)O)c1 (racemic),,,human,"oral, 50 mg single dose as hydrochloride, geometric mean",,AUC,266 ng·h/mL
Cc1ccccc1-c1cc(N2CCN(C)CC2)ncc1N(C)C(=O)C(C)(C)c1cc(C(F)(F)F)cc(C(F)(F)F)c1,,,"healthy volunteers, plasma","oral, dose not given, netupitant-palonosetron combination, with: oral contraceptives",,CL/F,25.1 L/h
C[C@H](N[C@@H](CCc1ccccc1)C(=O)O)C(=O)N1CCC[C@H]1C(=O)O,,,n-octanol/water,pH 7.4,,logD,-1
CON=C(N)c1ccc(-c2ccc(-c3ccc(C(N)=NOC)cc3)o2)cc1,,substrate,human liver microsomes,0.5 mg/mL protein,,Km,2.1 µM
CCN(CC)CCNC(=O)c1c(C)[nH]c(/C=C2\C(=O)Nc3ccc(F)cc32)c1C,,,patients,"50 mg daily, 24 h post-dose day 3, maximum time-matched",,placebo-adjusted QTcB prolongation,7.9 ms
CN(C)C(=O)c1cc2cnc(Nc3ccc(N4CCNCC4)cn3)nc2n1C1CCCC1,,,"recurrent glioblastoma patients, MRI-non-enhancing tumour","oral, 900 mg/day, 5 days",,unbound concentration,0.56 nmol/g
CC[C@@H]1CN(C(=O)NCC(F)(F)F)C[C@@H]1c1cnc2cnc3[nH]ccc3n12,,population PK model,patients vs healthy volunteers,dose not given,baseline: healthy volunteers,clearance reduction,~25%

# Repeated from above:
Molecule,target or system,test,test system,conditions,how to read,quantity,value
CCN1CCN(Cc2ccc(Nc3ncc(F)c(-c4cc(F)c5nc(C)n(C(C)C)c5c4)n3)nc2)CC1,,,cancer patients,,,elimination half-life,20 h and 22 h
Cc1c(N(C)CS(=O)(=O)O)c(=O)n(-c2ccccc2)n1C,,measured: CYP2B6,"human patients treated vs untreated, liver microsomes",dose not given,baseline: untreated patients,protein level and activity,increased
C#Cc1cccc(Nc2ncnc3cc(OCCOC)c(OCCOC)cc23)c1,,,human,"oral, 150 mg once daily, 24 h, day 1",,AUC(0-t),11900 ± 5010 ng·h/mL
